Published values of several laboratories.
Each line is one published result; not all experiments were run side by side. Numbers after ± are the reported error.

Under “scaled intrinsic clearance”, `CCCCCn1nc(C(=O)Nc2cccc3ccccc23)c2ccccc21` is recorded as 775 mL/min/kg (rat liver microsomes; scaled to whole liver).
Under DMA level, `CCCCCCCCCCC(=O)O[C@H]1CC[C@H]2[C@H]3[C@H]([C@@H](C)C[C@]12C)[C@H]1CCC(=O)C=C1C[C@H]3C` is recorded as “not detected” (human serum; 300 ng/mL, NaF 0.00 mg/mL).
For `COc1cc2c(Oc3ccc4[nH]c(C)cc4c3F)ccnc2cc1OCC1(N)CC1`, “influenza-like illness incidence” read 0% (paediatric refractory sarcoma patients; 8 mg).
For `CCN(CC)C(=O)[C@@H]1C=C2c3cccc4[nH]cc(c34)C[C@H]2N(C)C1`, “List of Complaints score” read 0 (refers to: fear of death; healthy volunteers; dose not given, 12 to 24 h; relative to: placebo, direction not given).
With `C#Cc1ccc2c(c1)C(c1ccccn1)=NCc1c(-c3cnco3)ncn1-2.Cl` the solubility was 336 µg/mL (thermodynamic equilibrium, UV; tetrahydrofuran; 24 h, 25 °C).
`C[C@H]1CN(C(=O)CC#N)[C@]12CCN(c1ncnc3[nH]ccc13)C2`: “participants with influenza-like illness” 0% (human; oral, 12 mg single dose).
The concentration of `CN/C(=N\[N+](=O)[O-])NCc1cnc(Cl)s1` is reported as 0.24 mg/kg dry soil (soil; 0 days, nominal 0.37).
With `COc1cccc(C2(O)CCCCC2CN(C)C)c1` (centres unmarked) the central volume was 0.432 L (joint PK model; human, whole blood; oral, dose not given, one-compartment metabolite model).
`Cc1ncc2n1-c1ccc(Cl)cc1C(c1ccccc1F)=NC2` has an AUC(0-inf) of 0.0382 ± 0.00173 µM·h (wild-type mice, plasma; intravenous, 0.3 mg/kg, added: 3-day vehicle).
For `O=C1c2c(O)c(=O)ccn2N([C@@H]2c3ccccc3SCc3c2ccc(F)c3F)[C@@H]2COCCN12`, the plasma concentration was 217 ng/mL (BALB/c mice, plasma; oral, 50 mg/kg baloxavir marboxil, 4 h).
For `O=C(O)CCCO`, “respiratory frequency area below curve” read 4760 breaths (male Sprague-Dawley rat; intravenous, 600 mg/kg daily, day 1, acute).
